Measured values gathered from unrelated publications.
Every numbered part comes from another study and shows a few of its results, in no order.

Block 1
Substance: PhoQ, residues 284 288 289 292 302 303 SASVAL
Method: Sort-seq
Measured: YFP reporter
Medium: E. coli
Notes: PhoQ-PhoP variant library
Together with: 10 µM Mg2+
Relative to: high Mg2+ state
Reading: higher = stronger signaling
PhoP, residues 12 14 15 18 19 LHHYF (Escherichia coli, UniProt P23836) — fold induction: 11.3.
It gave 8.99 for fold induction (PhoP, residues 12 14 15 18 19 VGHWL (Escherichia coli, UniProt P23836)).
It gave 0.818 for fold induction (PhoP, residues 12 14 15 18 19 TPWTL (Escherichia coli, UniProt P23836)).
PhoP, residues 12 14 15 18 19 NFFVT (Escherichia coli, UniProt P23836) — fold induction: 12.6.

Block 2
Target: Sal-like protein 4, full length isoform A (SALL4, Homo sapiens, UniProt Q9UJQ4, residues 1-1053)
UniProt Q9UJQ4, sequence (whole entry, looked up): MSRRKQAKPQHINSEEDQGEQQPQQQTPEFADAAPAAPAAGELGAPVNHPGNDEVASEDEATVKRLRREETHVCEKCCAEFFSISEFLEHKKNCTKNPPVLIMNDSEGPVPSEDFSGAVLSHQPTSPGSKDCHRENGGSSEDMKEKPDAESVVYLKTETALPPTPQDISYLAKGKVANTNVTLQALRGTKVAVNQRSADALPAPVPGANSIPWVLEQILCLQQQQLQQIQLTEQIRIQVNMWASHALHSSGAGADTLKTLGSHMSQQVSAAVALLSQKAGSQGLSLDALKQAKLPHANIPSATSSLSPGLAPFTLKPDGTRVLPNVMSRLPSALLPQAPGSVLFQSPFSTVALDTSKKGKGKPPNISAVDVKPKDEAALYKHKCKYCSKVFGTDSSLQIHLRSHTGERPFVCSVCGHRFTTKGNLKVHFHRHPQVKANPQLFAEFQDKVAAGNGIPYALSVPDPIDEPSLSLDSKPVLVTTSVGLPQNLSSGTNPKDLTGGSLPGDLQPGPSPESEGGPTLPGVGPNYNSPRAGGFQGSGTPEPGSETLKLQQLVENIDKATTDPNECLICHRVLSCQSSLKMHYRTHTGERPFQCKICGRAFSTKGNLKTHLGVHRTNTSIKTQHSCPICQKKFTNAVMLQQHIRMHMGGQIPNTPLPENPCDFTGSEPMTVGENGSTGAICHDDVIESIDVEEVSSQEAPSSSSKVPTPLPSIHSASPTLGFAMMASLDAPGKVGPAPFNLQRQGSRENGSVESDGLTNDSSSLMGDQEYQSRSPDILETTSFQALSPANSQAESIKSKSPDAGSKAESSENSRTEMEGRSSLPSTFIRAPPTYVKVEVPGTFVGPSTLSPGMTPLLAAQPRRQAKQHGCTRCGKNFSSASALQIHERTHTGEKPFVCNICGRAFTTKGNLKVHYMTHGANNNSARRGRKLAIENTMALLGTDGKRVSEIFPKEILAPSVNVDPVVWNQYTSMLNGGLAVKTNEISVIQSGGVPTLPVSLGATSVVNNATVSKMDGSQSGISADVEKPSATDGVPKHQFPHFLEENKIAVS
Method: universal PBM
Form: double-stranded DNA, one strand shown
Medium: in vitro
Tested at: 600 nM
Notes: 8-mer, flanks averaged, mean of replicates
Reading: higher = stronger binding
With `GCGATCAC` the E-score was -0.153.
For `TCATAGCA`, the E-score was 0.195.
The E-score of `AAAAGCCC` is reported as -0.0704.
`AGTAGAAG` has an E-score of -0.0571.
`CTACCGTA` has an E-score of 0.0617.
With `CGTGTTCC` the E-score was -0.161.
`ACTTACTG` gave an E-score of 0.119.
`ATACACTC` gave an E-score of 0.217.
`CACGCTGA` gave an E-score of -0.084.
The E-score of `CAGCCGAA` is reported as -0.2.
With `CGTAGTGC` the E-score was -0.187.

Block 3
Target: Interferon regulatory factor 5, full length, phosphomimetic (IRF5, Homo sapiens, UniProt Q13568-2, residues 1-514, K96S/S451D/S453D/S456D/S462D)
Method: protein-binding microarray
Form: double-stranded DNA, one strand shown
Medium: in vitro
Tested at: 250 nM
Notes: 60-bp whole probe
Together with: salmon DNA 0.4 mg/ml
Relative to: random background probes
Reading: higher = stronger binding
All sequences stand within: GCCTAGCAC … GTCTTGATTCGCTTGACGCTGCTG
The log fluorescence of `GGGCCAGCAGCCAGGTGGAGGTGCTAG` is reported as -0.676 z-score.
`GACGGACTGGACTTTAGGGACGTGCTA` has a log fluorescence of -0.571 z-score.
`GACGGACTGGGGTTTCGGGACGTGCTA` has a log fluorescence of 1.21 z-score.
The log fluorescence of `GACGGTCTCTTTTTCCTGACGTGCTAG` is reported as 0.139 z-score.
`GTCGGTTTCGGTTTCGGGACGTGCTAG` gave a log fluorescence of 11.2 z-score.
For `GACGATATCAGGACTGGAGACGTGCTA`, the log fluorescence was 0.375 z-score.
The log fluorescence of `TTAGGTATCGGTCTCCGTTAGTGCTAG` is reported as 6.79 z-score.
`CCATTTTTCTAGTCCAGACTGTGCTAG` gave a log fluorescence of 0.668 z-score.
With `TTAGGACTGGGTATCGGCTAGTGCTAG` the log fluorescence was 0.88 z-score.
`TTAGGTTTCGACTATCGGTTTGTGCTA` gave a log fluorescence of 9.08 z-score.
The log fluorescence of `GACGGTTTCGGTATCGTGACGTGCTAG` is reported as 9.46 z-score.
For `GACGGACTTGACTTTCGGGACGTGCTA`, the log fluorescence was 4.9 z-score.

Block 4
Target: Ras GTPase-activating protein-binding protein 1, full length (G3BP1, Homo sapiens, UniProt Q13283)
UniProt Q13283, sequence (whole entry, looked up): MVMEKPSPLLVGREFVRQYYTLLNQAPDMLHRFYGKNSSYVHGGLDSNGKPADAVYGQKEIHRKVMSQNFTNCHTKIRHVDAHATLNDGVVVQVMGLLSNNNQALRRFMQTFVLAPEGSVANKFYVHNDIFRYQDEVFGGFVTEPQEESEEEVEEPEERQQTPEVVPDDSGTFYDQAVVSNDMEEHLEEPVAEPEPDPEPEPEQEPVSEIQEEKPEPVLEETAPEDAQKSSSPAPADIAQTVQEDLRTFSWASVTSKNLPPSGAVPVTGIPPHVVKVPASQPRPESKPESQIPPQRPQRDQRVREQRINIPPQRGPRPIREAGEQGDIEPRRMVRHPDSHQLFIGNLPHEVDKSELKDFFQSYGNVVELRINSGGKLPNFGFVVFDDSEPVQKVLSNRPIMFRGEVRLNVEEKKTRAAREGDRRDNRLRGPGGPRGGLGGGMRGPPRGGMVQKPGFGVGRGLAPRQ
Method: RNA Bind-n-Seq
Form: RNA
Medium: in vitro
Tested at: 200 nM
Notes: whole 134-nt RNA, ends assumed
Together with: 150 mM LiCl
Relative to: input library
Reading: higher = stronger binding
Library: 7-deaza-guanosine replaces G
For `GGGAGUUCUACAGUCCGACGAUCUGUGGACGACAAUGAGGAGACCAUCAAAAAGCGGCUGGAGACCUAUUACAAGGCCACAGAACCUGUCAUCGCCUUCUAUGAGAAACGUGGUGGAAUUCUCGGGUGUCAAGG`, the log2 enrichment was -0.284.
`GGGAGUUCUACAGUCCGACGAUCCAAGUCCUGUGCUACACAUCGUAUGUACCGAAUCGGGGUUUGGGUUUGGGUUUGGGAAAGUAUUAUGUUACGCCGUUCGGAUCUGCACUUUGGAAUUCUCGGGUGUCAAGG` gave a log2 enrichment of -0.68.
For `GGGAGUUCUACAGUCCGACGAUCACCAUGCAGGUGGGCAUCUUUGGUAAGUGGGGCAAGGGGGGGAUAGGGAGGGGGGUAACACUUUGGGAACAGGUGGUCCCAGGUCGUUUCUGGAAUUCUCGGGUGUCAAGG`, the log2 enrichment was 0.295.
With `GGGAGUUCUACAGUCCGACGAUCACCAUGCAGGUGGGCAUCUUUGGGAAGUGGGGCAAGGGGGGGAUAGGGAGGGCGGUAACACUUUGGGAACAGGUGGUCCCAGGUCGUUUCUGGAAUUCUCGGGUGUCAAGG` the log2 enrichment was 0.0157.
For `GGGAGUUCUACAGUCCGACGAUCUCAAGUCCUGUGCUACACAUCGUAUGUACCGAAUCGGAAAGGUUUUUUUGGAGGAAAGUAUUAUGUUACGCCGUUCGGAUCUGCACUUCCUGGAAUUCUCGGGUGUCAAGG`, the log2 enrichment was -0.117.
`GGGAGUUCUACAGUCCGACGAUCGGUAUUCUGCAAGUACUGUAGAUGUUAUAGAAAUGAUGGAGGAUGAUAAAGUUGAUCUGAAUUUGAUUGUUGCCCUCAUCCGAUACAUUGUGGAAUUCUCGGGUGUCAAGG` has a log2 enrichment of -1.31.
The log2 enrichment of `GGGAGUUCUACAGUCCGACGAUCCAAGUCCUGUGCUACACAUCGUAUGUACCGAAUCGGAAAAAGGUUUUUUUGGUGGAAAGUAUUAUGUUACGCCGUUCGGAUCUGCACUUCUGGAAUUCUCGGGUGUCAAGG` is reported as -1.56.
For `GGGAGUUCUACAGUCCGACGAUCCCUGUGCUACACAUCGUAUGUACCGAAUCGGGGCCCCCGGGGCCCCCGGGGCCCCCGGGGAAAGUAUUAUGUUACGCCGUUCGGAUCUGCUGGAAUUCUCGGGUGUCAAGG`, the log2 enrichment was -1.07.
`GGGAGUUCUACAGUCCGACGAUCCACAGACAACACGCACCCACACAGACACAGAGGGAAGGGGUUGGGAUGGGGACAGGGUGCACAGCCGGGCGGGGUAGGACCCCAGCCCCUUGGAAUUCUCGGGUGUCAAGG` has a log2 enrichment of -1.6.
For `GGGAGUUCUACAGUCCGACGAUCACCAUGCAGGUGGGCAUCUUUGGGUAGUGGGGCAAGGGGGGGAUAGGGAGGGGGGUAACACUUUGGGAACAGGUGGUCCCAGGUCGUUUCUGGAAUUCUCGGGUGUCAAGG`, the log2 enrichment was 0.102.
`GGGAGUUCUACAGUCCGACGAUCUCAAGUCCUGUGCUACACAUCGUAUGUACCGAAUCGGUGGAAAAAGGUUUUUGGAAAGUAUUAUGUUACGCCGUUCGGAUCUGCACUUCCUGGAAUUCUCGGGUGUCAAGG` has a log2 enrichment of -0.938.

For quick reference, copied from above (block 2):
For `TCATAGCA`, the E-score was 0.195.
The E-score of `AAAAGCCC` is reported as -0.0704.
With `CGTGTTCC` the E-score was -0.161.
